Results collected from several papers.
Each line is one published result; not all experiments were run side by side. Values joined by “and” are separate records of one study, mostly repeats; a detail may differ. Numbers after ± are the reported error.
inhA: Enoyl-[acyl-carrier-protein] reductase [NADH] (inhA, Mycobacterium tuberculosis, UniProt P9WGR1)
Gastric inhibitory polypeptide receptor: Gastric inhibitory polypeptide receptor (Mus musculus, UniProt Q0P543)
Adenosylmethionine-8-amino-7-oxononanoate aminotransferase: Adenosylmethionine-8-amino-7-oxononanoate aminotransferase (Mycobacterium tuberculosis, UniProt P9WQ81)
ACE2: Angiotensin-converting enzyme 2 (ACE2, Homo sapiens, UniProt Q9BYF1)
Replicase polyprotein 1ab main protease: Replicase polyprotein 1ab, main protease (Human coronavirus OC43, UniProt P0C6X6)

Structure (SMILES) | target | assay | system | setting | how to read | endpoint | value
C/C=C(\N)C(=O)CCCCCCC | CAI-1 autoinducer sensor kinase/phosphatase CqsS (cqsS, Vibrio cholerae serotype O1, UniProt Q9KM66) | bioluminescence, agonist | Vibrio cholerae | – | baseline: Ea-CAI-1 at 100% | EC50 | 109%
O=C1CC(=O)N(c2ccccc2)c2cc(Cl)ccc2N1 | Gabrg2/Gabra2, with β3 subunit (Rattus norvegicus, UniProt P18508+P23576) | GABA current potentiation, positive allosteric modulator, whole-cell patch clamp | HEK293 | together with: GABA at EC10 | baseline: Emax α2 over α1 | selectivity ratio | 1.77 ± 0.28
CCCCC(=N)NCc1ccc2[nH]c3c(c2c1)CC1(O)C2Cc4ccc(O)c5c4C1(CCN2CC1CC1)C3O5 (stereo not drawn) | Kappa-type opioid receptor (OPRK1, Homo sapiens, UniProt P41145) | [3H]diprenorphine binding | – | – | baseline: Ki δ over Ki κ | selectivity ratio | 5
CCCCCCc1ccc(Oc2ccccc2Br)c(O)c1 | inhA | enzyme activity, inhibitor, progress curve analysis | – | 20 °C | – | k5 | 0.28 min⁻¹
CC1C(=NNC(=O)c2ccncc2)C(C)C(c2ccc(Br)cc2)OC1c1ccc(Br)cc1 (stereo not drawn) | DNA gyrase subunit A/DNA gyrase subunit B (Mycobacterium tuberculosis, UniProt P9WG45+P9WG47) | enzyme activity, inhibitor | – | 6.25 µg/mL | – | inhibition | 50.7%
CCCCCn1cc(C(=O)c2ccc3ccccc3c2)c2ccccc21 | Cannabinoid receptor 1 (CNR1, Homo sapiens, UniProt P21554, I267L) | Gαi1 engagement, agonist, BRET | – | – | baseline: reference agonist at wild-type CB1 | Emax | 72.6 ± 4%
Cc1cc(O)cc(-c2nc(Nc3cc(C(F)(F)F)cc(C(F)(F)F)c3)ncc2-c2ccnc(Cl)c2)c1 | Proto-oncogene tyrosine-protein kinase Src (SRC, Homo sapiens, UniProt P12931) | enzyme activity, inhibitor | – | 10 µM | – | inhibition | 33.6%
CN1CCc2cc(Br)c(O)cc2C(c2ccc(NC(=O)CCOCCOCCOCCOCCn3cc(COCCOCCOCCOCCOCCC(=O)NCCc4c[nH]cn4)nn3)cc2)C1 (stereo not drawn) | D(1A) dopamine receptor (DRD1, Homo sapiens, UniProt P21728) | binding, association-competition | – | together with: GDA 120 nM | – | residence time | 5 to 8 min
N#CC1=C(N)OC2=C(c3sc(N)c(C#N)c3CC2)C1c1ccccc1Cl (stereo not drawn) | mRNA cap guanine-N(7) methyltransferase (RNMT, Homo sapiens, UniProt O43148) | enzyme activity, inhibitor | – | 50 µM | – | inhibition | 92.6%
CC(=O)N[C@H]1[C@@H](O)[C@H](O)[C@@H](CO)O[C@H]1O | N-acetylmannosamine kinase (nanK, Vibrio cholerae serotype O1, UniProt Q9KR61) | substrate | Vibrio cholerae | – | – | Km | 71 µM and ~65 µM
CC[C@H](C)[C@H](NC(=O)[C@H](CO)NC(=O)[C@H](Cc1ccc(O)cc1)NC(=O)[C@H](CC(=O)O)NC(=O)[C@H](CO)NC(=O)[C@@H](NC(=O)[C@H](Cc1ccccc1)NC(=O)[C@@H](NC(=O)CNC(=O)[C@@H]1CCCN1C(=O)[C@H](C)NC(=O)[C@@H](N)Cc1ccc(O)cc1)[C@@H](C)O)[C@@H](C)CC)C(=O)N[C@@H](C)C(=O)N[C@@H](CCSC)C(=O)N[C@@H](CC(=O)O)C(=O)N[C@@H](CCCCN)C(=O)N[C@H](C(=O)N[C@@H](CCCNC(=N)N)C(=O)N[C@@H](CCC(N)=O)C(=O)N[C@@H](CCC(N)=O)C(=O)N[C@@H](CC(=O)O)C(=O)N[C@@H](Cc1ccccc1)C(=O)N[C@H](C(=O)N[C@@H](CC(N)=O)C(=O)N[C@@H](Cc1c[nH]c2ccccc12)C(=O)N[C@@H](CC(C)C)C(=O)N[C@@H](CC(C)C)C(=O)N[C@@H](C)C(=O)N[C@@H](CCC(N)=O)C(=O)N[C@@H](CCCNC(=N)N)C(=O)NCC(=O)N[C@@H](CCCCN)C(=O)N[C@@H](CCCCN)C(=O)N[C@@H](CO)C(=O)N[C@@H](CC(=O)O)C(=O)N[C@@H](Cc1c[nH]c2ccccc12)C(=O)N[C@@H](CCCCN)C(=O)N[C@@H](Cc1c[nH]cn1)C(=O)N[C@@H](CC(N)=O)C(=O)N[C@H](C(=O)N[C@H](C(=O)N[C@@H](CCC(N)=O)C(=O)O)[C@@H](C)O)[C@@H](C)CC)C(C)C)[C@@H](C)CC | Gastric inhibitory polypeptide receptor | – | COS-7 | – | – | Emax | 59 ± 8%
CC(C)C[C@H](NC(=O)[C@H](CCCNC(=N)N)NC(=O)[C@H](Cc1ccccc1)NC(=O)CN)C(=O)N[C@@H](CC(N)=O)C(=O)N[C@@H](CO)C(=O)N[C@@H](C)C(=O)N[C@@H](CO)C(=O)N[C@@H](CCCNC(=N)N)C(=O)N[C@H](C(=O)N[C@@H](C)C(=O)N[C@@H](Cc1c[nH]cn1)C(=O)NCC(=O)N[C@@H](Cc1ccc(O)cc1)C(N)=O)C(C)C | Allatotropin-related peptide receptor 1 (Aplysia californica, UniProt A0ABM0K100) | cAMP, agonist | – | – | baseline: compound over D2-ATRP | potency ratio | ~80 fold
O=c1cc(-c2ccccc2F)[nH]c2cc3c(cc12)OCO3 | Adenosylmethionine-8-amino-7-oxononanoate aminotransferase | – | – | 100 µg/mL, together with: enzyme 2 µM | – | inhibition | 78.7%
CC(C)c1nc2cc(O)ccc2c(=O)n1-c1ccc(C#N)cc1 | Transient receptor potential cation channel subfamily V member 1 (TRPV1, Homo sapiens, UniProt Q8NER1, A566S) | calcium influx, FLIPR | – | – | baseline: mutant over wild type | potency shift | 7.1 fold
CC(C)C[C@H](NC(=O)[C@H](CCCCN)NC(=O)CNC(=O)[C@H](Cc1c[nH]cn1)NC(=O)[C@H](CCCNC(=N)N)NC(=O)[C@H](CC(C)C)NC(=O)[C@H](Cc1ccc(O)cc1)NC(=O)[C@H](CCCNC(=N)N)NC(=O)[C@H](Cc1ccc(O)cc1)NC(=O)[C@H](CCCCN)NC(=O)[C@@H](N)Cc1ccc(O)cc1)C(=O)N[C@@H](CCCNC(=N)N)C(N)=O | ACE2 | binding | – | pH 8 | – | kon | 1800 M⁻¹ s⁻¹
CCOC(=O)C1C(OC(c2ccc(Cl)cc2)c2ccc(Cl)cc2)CC2CCC1N2C (single isomer, unassigned) | rat central benzodiazepine site | binding, radioligand displacement | – | inactive if below 75% at 10000 nM, together with: [3H]flunitrazepam | – | Ki | inactive
COC1OC2COC(c3ccccc3)OC2C(NC(=S)SCc2ccccc2)C1O (stereo not drawn) | Adenosylmethionine-8-amino-7-oxononanoate aminotransferase | – | – | 100 µg/mL, together with: enzyme 2 µM | – | inhibition | > 60%
C=C(C)C1C2OC(=O)C1C1(O)CC3OC34C(=O)OC2C14C (stereo not drawn) | Rdl (Drosophila melanogaster, UniProt P25123, A301V) | GABA-induced current, antagonist | – | concentration not given | baseline: mutant over wild type | IC50 fold increase | ~1000 fold
CCCCCCc1ccc(Oc2ccccc2C)c(O)c1 | inhA | dissociation | – | – | – | activation energy | ~10 kcal/mol
CC(C)C[C@H](NC(=O)OCc1ccccc1)C(=O)N[C@@H](C[C@@H]1CCNC1=O)C(O)S(=O)(=O)O (stereo partly drawn) | Replicase polyprotein 1ab main protease | thermal shift | – | – | higher = stronger binding | ΔTm | 13.9 ± 0.81 °C
Cc1cc(S(=O)(=O)N(C)CC(=O)Nc2ccn(C)c(=O)c2)c2[nH]ncc2c1 | Dihydrolipoyl dehydrogenase (Mycobacterium tuberculosis, UniProt P9WHH9) | SPR | – | together with: NADH | baseline: without NADH | complex half-life increase | 40 fold
CCC[C@H](NC(=O)[C@H](CC(C)C)NC(=O)OCc1ccccc1)C(=O)C(=O)NCc1ccccn1 | Replicase polyprotein 1ab main protease | thermal shift | – | – | higher = stronger binding | ΔTm | 1.54 ± 0.01 °C
CC(C)C[C@H](NC(=O)[C@@H]1CCCN1C(=O)[C@H](Cc1c[nH]c2ccccc12)NC(=O)[C@H](Cc1ccc(O)cc1)NC(=O)[C@@H](N)CO)C(=O)N[C@@H](CC(N)=O)C(=O)N[C@@H](CC(=O)O)C(=O)N[C@@H](Cc1ccc(O)cc1)C(=O)NCC(=O)N[C@@H](Cc1ccccc1)C(=O)N[C@@H](Cc1ccc(O)cc1)C(=O)N[C@H](C(N)=O)[C@@H](C)O | ACE2 | – | – | pH 8 | – | association rate constant | 370 M⁻¹ s⁻¹
CC[C@H](C)[C@H](NC(=O)[C@H](CO)NC(=O)[C@H](Cc1ccc(O)cc1)NC(=O)[C@H](CC(=O)O)NC(=O)[C@H](CO)NC(=O)[C@@H](NC(=O)[C@H](Cc1ccccc1)NC(=O)[C@@H](NC(=O)CNC(=O)[C@@H]1CCCN1C(=O)[C@H](C)NC(=O)[C@@H](N)Cc1ccc(O)cc1)[C@@H](C)O)[C@@H](C)CC)C(=O)N[C@@H](C)C(=O)N[C@@H](CCSC)C(=O)N[C@@H](CC(=O)O)C(=O)N[C@@H](CCCCN)C(=O)N[C@H](C(=O)N[C@@H](Cc1c[nH]cn1)C(=O)N[C@@H](CCC(N)=O)C(=O)N[C@@H](CCC(N)=O)C(=O)N[C@@H](CC(=O)O)C(=O)N[C@@H](Cc1ccccc1)C(=O)N[C@H](C(=O)N[C@@H](CC(N)=O)C(=O)N[C@@H](Cc1c[nH]c2ccccc12)C(=O)N[C@@H](CC(C)C)C(=O)N[C@@H](CC(C)C)C(=O)N[C@@H](C)C(=O)N[C@@H](CCC(N)=O)C(=O)N[C@@H](CCCCN)C(=O)NCC(=O)N[C@@H](CCCCN)C(=O)N[C@@H](CCCCN)C(=O)N[C@@H](CC(N)=O)C(=O)N[C@@H](CC(=O)O)C(=O)N[C@@H](Cc1c[nH]c2ccccc12)C(=O)N[C@@H](CCCCN)C(=O)N[C@@H](Cc1c[nH]cn1)C(=O)N[C@@H](CC(N)=O)C(=O)N[C@H](C(=O)N[C@H](C(=O)N[C@@H](CCC(N)=O)C(=O)O)[C@@H](C)O)[C@@H](C)CC)C(C)C)[C@@H](C)CC | Gastric inhibitory polypeptide receptor | – | COS-7 | – | – | Emax | 71 ± 8%

Some of these lines once more:
Structure (SMILES) | target | assay | system | setting | how to read | endpoint | value
CCCCCCc1ccc(Oc2ccccc2Br)c(O)c1 | inhA | enzyme activity, inhibitor, progress curve analysis | – | 20 °C | – | k5 | 0.28 min⁻¹
CC1C(=NNC(=O)c2ccncc2)C(C)C(c2ccc(Br)cc2)OC1c1ccc(Br)cc1 (stereo not drawn) | DNA gyrase subunit A/DNA gyrase subunit B (Mycobacterium tuberculosis, UniProt P9WG45+P9WG47) | enzyme activity, inhibitor | – | 6.25 µg/mL | – | inhibition | 50.7%
CCCCCn1cc(C(=O)c2ccc3ccccc3c2)c2ccccc21 | Cannabinoid receptor 1 (CNR1, Homo sapiens, UniProt P21554, I267L) | Gαi1 engagement, agonist, BRET | – | – | baseline: reference agonist at wild-type CB1 | Emax | 72.6 ± 4%
